# Measurements collected from several papers.
# Target: Serine/threonine-protein kinase 32C (STK32C, Homo sapiens, UniProt Q86UX6)
Compound,observed,mode,technique,tested at,relative to,quantity,result
Cc1cnc2nc1Nc1cccc(c1)COC/C=C/COCc1cc(ccc1OCCN1CCOCC1)N2,binding,,competition with immobilised ligand,0.1 µM,,remaining binding,94%
CN1CC[C@@H](COc2cnc(C#N)cc2-c2ccn3nc(NC(=O)C4CC4)cc3c2)C1,enzyme activity,inhibitor,,1 µM,,inhibition,6%
O=C(Cc1ccc(OCc2ccccc2)cc1)NC1(C(=O)O)CCN(C(=O)c2ccc(-c3cccc(Cl)c3)cc2)CC1,enzyme activity,inhibitor,,10 µM,,activity vs control,99%
CN1CCN(Cc2ccc(NC(=O)c3cccc(C#Cc4cnc(N)c5ncccc45)c3)cc2C(F)(F)F)CC1,cell-free assay,,competition with immobilised ligand,0.5 µM,,remaining binding,100%
NC(=O)C[C@H]1CCc2sc3ncnc(O[C@H]4CC[C@H](N5CCOCC5)CC4)c3c21,enzyme activity,inhibitor,,10 µM,,inhibition,-9%
CN1CCN(Cc2ccc(-c3ccc(CO[C@H]4CCC[C@@H]4NC(=O)c4cc(-c5cnn(C)c5)cnc4N)cc3)cc2)CC1,enzyme activity,inhibitor,,0.1 µM,,inhibition,-9%
C=CC(=O)N1CCc2ccc(-n3c(=O)ccc4cnc5ccc(-c6cnn(C)c6)cc5c43)cc21,,,KINOMEscan,1 µM,DMSO control,remaining binding,93%
C=C1CCCCCCCCCC(CO)C1=O (centres unmarked),cell-free assay,,competition with immobilised ligand,10 µM,,remaining binding,98%
COc1cc(Nc2nccc(-c3cnn4nc(OC)ccc34)n2)cc(C(F)(F)F)c1,binding,,competition with immobilised ligand,1 µM,,remaining binding,100%
COc1ccc(NC(=O)Nc2ccc3c(c2)C(=O)N(C(C)CO)CC(C)C(CN(C)Cc2ccc4c(c2)OCO4)O3)cc1 (centres unmarked),binding,,competition with immobilised ligand,10 µM,,remaining binding,91%
Nc1ncc2c(n1)-c1c([nH]c3ccc(C4=CCOCC4)cc13)CCC2,binding,,competition with immobilised ligand,1 µM,,remaining binding,98%
C=CC(=O)N1Cc2nc(-c3cc(-c4cc(Cl)cnc4Cl)c(F)cc3F)n(-c3ccncn3)c2C1,cell-free assay,inhibitor,,1 µM,,inhibition,5.6%
Nc1ncc(-c2cc(-c3cnn(CC(F)(F)F)c3)ncc2F)nc1C(=O)NC1CNCC(F)C1 (centres unmarked),enzyme activity,,,1 µM,DMSO control,remaining activity,95.5%
CC(C)=CC1OC(C)(C)C2C=C3C(=O)C(Cl)=CC(O)C3C3C(O)C4OC4C(=O)C132 (centres unmarked),cell-free assay,,competition with immobilised ligand,10 µM,,remaining binding,100%

# Some of these lines once more:
Compound,observed,mode,technique,tested at,relative to,quantity,result
C=CC(=O)N1Cc2nc(-c3cc(-c4cc(Cl)cnc4Cl)c(F)cc3F)n(-c3ccncn3)c2C1,cell-free assay,inhibitor,,1 µM,,inhibition,5.6%
